Published values pooled from the literature.
A part holds a random share of what one study measured.

Block 1
Target: Histone acetyltransferase KAT6A, winged helix 1, GST fusion (KAT6A, Homo sapiens, UniProt Q92794, residues 1-85)
Technique: protein binding microarray
Molecule type: double-stranded DNA, one strand shown
Sample: in vitro
Tested at: not given
Setting: 8-mer, flanks averaged, mean of 2 arrays, mostly near background
Relative to: not given
Reading: higher = stronger binding
Residues (chain): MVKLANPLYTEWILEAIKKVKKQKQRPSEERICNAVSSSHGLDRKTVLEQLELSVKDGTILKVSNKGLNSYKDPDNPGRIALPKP
`ACCTTCAG` gave an E-score of -0.122.
With `AGGTCGAT` the E-score was -0.0232.
The E-score of `AGTGACAA` is reported as -0.271.
For `GCCTGACC`, the E-score was -0.054.
The E-score of `CACAACCC` is reported as -0.0443.
`CATCTAAA` gave an E-score of -0.219.
`AAGTAGGT` gave an E-score of -0.0879.

Block 2
Target: Sal-like protein 4, full length isoform B (SALL4, Homo sapiens, UniProt Q9UJQ4-2, residues 1-616)
Technique: universal PBM
Molecule type: double-stranded DNA, one strand shown
Sample: in vitro
Tested at: not given
Setting: 8-mer, flanks averaged, mean of replicates
Reading: higher = stronger binding
`TCCTGAAA` has an E-score of 0.0739.
`TACGGGCA` has an E-score of -0.17.
`CTAGTCAG` has an E-score of -0.102.
For `AGGGCTAA`, the E-score was -0.00376.
`CTCTCCCC` has an E-score of -0.257.
The E-score of `CTAGTTCA` is reported as 0.0708.

Block 3
Target: RNA binding protein fox-1 homolog 2, RRM domain, GST-SBP tag (RBFOX2, Homo sapiens, UniProt O43251-10, residues 100-194)
Technique: RNA Bind-n-Seq
Molecule type: RNA
Sample: in vitro
Tested at: 365 nM
Setting: natural RNA segment, single round, ends assumed
Relative to: no-protein control
Reading: higher = stronger binding
All sequences stand within: GGGAGUUCUACAGUCCGACGAUC … UGGAAUUCUCGGGUGCCAA
Construct (chain): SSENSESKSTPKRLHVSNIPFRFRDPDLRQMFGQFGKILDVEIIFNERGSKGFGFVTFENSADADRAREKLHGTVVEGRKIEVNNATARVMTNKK
`AUUGUAUGUUAAAGCAUCAGAGAUGGUAAUCUACAGCUCACCUCUGAAGGCAAAUAUAAGCUGGGAAAAAAGUUUUGAUGAAAUUCUUGAAGUUCAUGGUGAUCAGUGCA`: “RBNS enrichment (R)” 0.707.
Under “RBNS enrichment (R)”, `AAGGUAGUUAAAAUUUGUAAAUGCUAAGGCGUUGCCAGGUCCUAAUGAGUCAGACCUGUACUACUGAUUAUUAAGCAGGACAGACUGAGCUUUCUGCAAAUAGCUUGAAG` is recorded as 0.749.
`UUAUUAUGAUGUAAUACCAGUAGAAUAUUUAAAAGGCACACCACAUCUGAAUAAUCAAUGUAAAUAUUUUCUUUCAAAGUUGUAAGUUUUCAUAUCAUGUGCUGUAAAGU` — result for “RBNS enrichment (R)”: 0.559.
For `CUUUGAAGGCCAGGUAUAUGUGUACCAGUGCUCUUCAAAGGGAGAACCAUUAAAACCAACAUGGAAUGCAGGGACUUCGCCUUAUAAGAUUUCCAGUUUUAAAACUGCCC`, “RBNS enrichment (R)” read 0.481.
Under “RBNS enrichment (R)”, `AUAAACAUCACUGCACUGUGACUGGUGGGGAAAACUGACAGCUUCCUGUUUGUACACAUUUGACAUUGGCUGUUAUAAUAUAUGGUCCUCAGUUGGGGAAGACACUUAGA` is recorded as 0.606.
`AAGCAAGAGGGGGCCGUUUUAAUGAAUUAGAUUGAAAAAUAGGCCUAAGCCGUUUGUACCUUAGUUUUAGCGUUCGGCCUCACCUAGCAAUCAAGGGCCCGUUUGGAGAA`: “RBNS enrichment (R)” 0.599.
Under “RBNS enrichment (R)”, `AAAGCAAUUACAUGCAUGUUGCAUUUUUUUCAUCUGUUGUACAUAGUUGUAUUUUUAUCUAAUGCCAUUUUAGAAUUUUCUAAGGGAAUUUAAUGAAUUCACAUGAAAGG` is recorded as 8.46.
Under “RBNS enrichment (R)”, `UGAGAUUUUUCAAGCUGUGCUUUGUGUGUGUGCCAGUAGACUUACGCAAGGACAGGGUACAAACUUAGCUGGAAGUCUGCCCAGGCUGAAUGAUCUCUUCCCUAGAGUUG` is recorded as 0.55.
Under “RBNS enrichment (R)”, `CCACUUGGUUUUUGACUGAAGGGGAAGUGUAGAAAUAUAUUGAUUUGUGAUUUCUGGUGUCACCUGUGUUACCAAAAAUCAAAACAAAUCUUUUUUAUUUUUUAUUAUUA` is recorded as 0.332.

Mixed results
The fold induction of `PhoQ, residues 284 288 289 292 302 303 AAQSYM` is reported as 2.83 (PhoP, residues 12 14 15 18 19 NQAHL (Escherichia coli, UniProt P23836); Sort-seq, measured: YFP reporter; E. coli; PhoQ-PhoP variant library, with: 10 µM Mg2+; relative to: high Mg2+ state, higher = stronger signaling).
